Assay results from different studies.
Protocols differ between the studies behind these lines. ± gives the spread as reported.

| Compound | test | system | setting | half-life [h] |
| --- | --- | --- | --- | --- |
| CC1(C)C(=O)N(c2ccc(C#N)c(C(F)(F)F)c2)C(=S)N1c1ccc(C(=O)O)c(F)c1 |  | human, male, plasma | oral, 160 mg, single dose, fasting | 242 ± 66.6 |
| CC(C)[C@H]1NC(=O)[C@H](Cc2ccccc2)NC(=O)[C@@H](C(C)C)NC(=O)[C@@H](C)NC(=O)[C@H](CO)NC(=O)[C@@H](Cc2c(-c3ccc(-c4ccc5ccccc5c4)cc3)[nH]c3ccccc23)NC(=O)[C@@H](CO)NC1=O |  | female Sprague-Dawley rat, plasma | intraperitoneal, 20 mg/kg, single dose | 0.6 |
| CCN(CC)CCOc1ccc(-c2nnn(Cc3ccc(OC)cc3)c2N)cc1 | metabolic stability | monkey, liver microsomes |  | 0.927 |
| CC(C)N1CCCCC1C(=O)NC(Cc1ccc(-c2ccccc2)cc1)B(O)O (stereo not shown) |  | rat, plasma | oral, 1 mg/kg | 3.2 |
| CCCCCCCCCCCCCC(=O)N[C@H](CCN)C(=O)N[C@@H]1C(=O)N[C@@H](CCN)C(=O)N[C@@H](CC(C)C)C(=O)N[C@@H](CCN)C(=O)N[C@H](Cc2ccccc2)C(=O)N[C@@H](CC(C)C)C(=O)N[C@@H](CCN)C(=O)N[C@H](CCN)C(=O)N[C@@H](C(C)C)C(=O)N[C@@H](CC(=O)O)C(=O)O[C@@H]1C |  | rat, plasma | intravenous, 5 mg/kg | 8.28 |
| CC[C@H](C)[C@H](NC(=O)[C@H](Cc1ccc(O)cc1)NC(=O)[C@@H](NC(=O)[C@H](CCCNC(=N)N)NC(=O)[C@@H](N)CC(=O)O)C(C)C)C(=O)N[C@@H](Cc1c[nH]cn1)C(=O)N1CCC[C@H]1C(=O)O |  | Beagle dogs, both sexes, plasma | subcutaneous, 10 mg/kg/day, day 27, median | 0.453 |
| CC1(C)C(=O)N(c2ccc(C#N)c(C(F)(F)F)c2)C(=S)N1c1ccc(C(N)=O)c(F)c1 |  | male human, plasma | oral, 40 mg, single dose, fasted | 221 |
| Cn1nc(NS(C)(=O)=O)c2c(Cl)ccc(-n3c([C@H](Cc4cc(F)cc(F)c4)NC(=O)Cn4nc(C(F)F)c5c4C(F)(F)[C@@H]4C[C@H]54)nc4nc(OCCC(F)(F)F)ccc4c3=O)c21 |  | human, plasma | oral, 125 mg single dose, powder in bottle, geometric mean | 54.4 |
| C[C@H]1C(=O)O[C@@H]2O[C@@]3(C)CC[C@@H]4[C@@]2(OO3)[C@H]1CC[C@]4(C)O |  | human | dose not given, day 2 | 1.7 ± 0.5 |
| CN1CCCCC1C(=O)NC(Cc1ccc(-c2ccccc2)cc1)B(O)O (stereo not shown) |  | rat, plasma | intravenous, 1 mg/kg | 5.3 |

A few entries again:
| Compound | test | system | setting | half-life [h] |
| --- | --- | --- | --- | --- |
| CC(C)[C@H]1NC(=O)[C@H](Cc2ccccc2)NC(=O)[C@@H](C(C)C)NC(=O)[C@@H](C)NC(=O)[C@H](CO)NC(=O)[C@@H](Cc2c(-c3ccc(-c4ccc5ccccc5c4)cc3)[nH]c3ccccc23)NC(=O)[C@@H](CO)NC1=O |  | female Sprague-Dawley rat, plasma | intraperitoneal, 20 mg/kg, single dose | 0.6 |
